# Results collected from several papers.
# Compare with care: the assays were run in different laboratories. “And” joins repeats or separate records; there may be more than shown. Numbers after ± are the reported error.
Compound,target or system,test,system,setting,how to read,quantity,result
O=C1NC2(CC2)COc2ncc(F)cc2[C@H]2COCCN2c2ccn3ncc1c3n2,,,"Sprague-Dawley rat, female, heart","oral, 20 mg/kg/day, 4 weeks, end of treatment",,organ-to-body weight ratio,0.431 ± 0.047%
CC(C)[C@@H]1NC(=O)CNC(=O)[C@H](CC(N)=O)NC(=O)[C@H](CCCNC(=N)N)NC(=O)[C@H](Cc2ccc(O)cc2)NC(=O)[C@H](C(C)C)NC(=O)[C@@H](NC(=O)[C@@H](NC(=O)[C@H](CC(N)=O)NC(=O)[C@H](Cc2c[nH]c3ccccc23)NC(=O)[C@H](C)NC(=O)[C@H](Cc2ccccc2)NC(=O)CNC(=O)[C@H](CCCCN)NC(=O)[C@H](Cc2ccccc2)NC(=O)[C@H](Cc2ccccc2)NC(=O)[C@H](CCCCN)NC(=O)OCC2c3ccccc3-c3ccccc32)C(C)C)CSSC[C@@H](C(=O)N[C@@H](Cc2c[nH]cn2)C(=O)N[C@@H](CCCNC(=N)N)C(=O)N[C@@H](CCCNC(=N)N)C(=O)N[C@@H](C)C(=O)N[C@@H](CC(N)=O)C(N)=O)NC(=O)[C@H](C(C)C)NC(=O)[C@H](CCCNC(=N)N)NC1=O,,,"ICR mice, blood","intraperitoneal, 5 mg/kg, day 5",,mean corpuscular haemoglobin,13.17 ± 0.13 pg
CSCC[C@H](NC(=O)CNC(=O)[C@H](CCCCN)NC(=O)[C@H](CC(C)C)NC(=O)[C@@H]1CCCN1C(=O)[C@H](CO)NC(=O)[C@H](Cc1c[nH]cn1)NC(=O)[C@H](Cc1c[nH]c2ccccc12)NC(=O)[C@H](CCCNC(=N)N)NC(=O)[C@H](CC(C)C)NC(=O)[C@H](CCCNC(=N)N)NC(=O)[C@H](Cc1c[nH]c2ccccc12)NC(=O)[C@H](CS)NC(=O)CCCCCNC(=O)CN1CCN(CC(=O)O)CCN(CC(=O)O)CCN(CC(=O)O)CC1)C(=O)O [copper-64 labelled],,ex vivo biodistribution,"male C57BL/6J mice, muscle","intravenous, 1.85 MBq, 18 h, B16-F10 tumour-bearing",,tissue uptake,0.32 %ID/g
Cc1ccc(N(C)CCN2CCOCC2)cc1C(=O)N[C@H](C)c1cc(-c2cnn(C)c2)nc2ccccc12,Vero E6,,,125 µM,,viability,66.9% and 79.8% and 53.5%
CCCCCCCCCCCC(=O)N1CCN(C(=O)C2CCNCC2)CCN(C(=O)C2CCNCC2)CC1,,dynamic light scattering,deionized water,"128 µg/mL, 25 °C, intensity average",,hydrodynamic diameter,179 nm
CC[C@H](C)[C@H](NC(=O)[C@H](CCCCN)NC(=O)CNC(=O)[C@H](CC(C)C)NC(=O)[C@H](Cc1ccccc1)NC(=O)[C@H](CCCCN)NC(=O)[C@H](CO)NC(=O)[C@H](Cc1ccccc1)NC(=O)[C@H](Cc1c[nH]c2ccccc12)NC(=O)[C@H](CCC(N)=O)NC(=O)[C@@H](NC(=O)[C@H](Cc1ccccc1)NC(=O)CCCCCNC(=O)CN1CCN(CC(=O)O)CCN(CC(=O)O)CCN(CC(=O)O)CC1)C(C)C)C(=O)N[C@@H](CCC(=O)O)C(=O)N1CCC[C@H]1C(=O)N[C@@H](CC(=O)O)C(=O)N[C@H](C(=O)N[C@@H](CO)C(=O)N[C@@H](CCC(N)=O)C(=O)N[C@H](C(=O)N[C@@H](CCC(N)=O)C(=O)N[C@@H](CC(=O)O)C(=O)N1CCC[C@H]1C(=O)N[C@@H](CC(N)=O)C(=O)N[C@@H](CC(=O)O)C(=O)N[C@@H](CCC(N)=O)C(=O)N[C@@H](Cc1ccc(O)cc1)C(=O)N[C@@H](CCC(=O)O)C(=O)N1CCC[C@H]1C(=O)N[C@@H](Cc1ccccc1)C(=O)O)C(C)C)C(C)C [copper-64 labelled],,dynamic PET,"mouse, CT26 tumour, untreated, tumour","intravenous, 100 µCi/mouse, 2700 s",,SUVmean,0.98 SUV
CC(C)[C@H]1NC(=O)[C@@H](C)NC(=O)[C@@H](C(C)C)NC(=O)[C@@H](Cc2ccccc2)NC(=O)[C@@H](C(C)C)NC(=O)[C@@H]([C@H](C)O)NC(=O)[C@@H](Cc2ccc(O)cc2)NC(=O)[C@@H](CCCNC(=N)N)NC(=O)[C@@H]2CCCC[C@H]2NC(=O)[C@@H](CO)NC(=O)[C@H](Cc2ccc(O)cc2)NC(=O)CSC[C@@H](C(=O)NCCOCCOCCOCCOCCOCCOCCC(N)=O)NC(=O)[C@@H](CO)NC(=O)[C@@H](C(C)C)NC(=O)[C@@H](Cc2ccc(O)cc2)NC1=O,,HPLC,human serum,"10% serum, 37 °C",,stability time,≥ 24 h
CC(C)C[C@@H](NC(=O)[C@@H](CCCNC(=N)N)NC(=O)[C@@H](Cc1c[nH]cn1)NC(=O)[C@@H](Cc1c[nH]c2ccccc12)NC(=O)[C@@H](Cc1c[nH]cn1)NC(=O)[C@@H](Cc1ccccc1)NC(=O)[C@H](NC(=O)[C@@H](Cc1ccc(O)cc1)NC(=O)CNC(=O)CNC(=O)CCOCCOCCOCCNC(=O)CN1CCN(CC(=O)O)CCN(CC(=O)O)CC1)[C@H](C)O)C(=O)N[C@H](CC(N)=O)C(=O)N1CCC[C@@H]1C(=O)O [gallium-68 labelled],,,"C57BL/6 mice, male","intravenous, 1.85 MBq, 120 min",baseline: tumour over muscle,tissue ratio,7.26 ± 1.07
CC(C)[C@H](NC(=O)[C@@H](NC(=O)[C@H](CCCNC(=N)N)NC(=O)[C@H](CCCNC(=N)N)NC(=O)[C@H](CCCNC(=N)N)NC(=O)[C@H](CCC(N)=O)NC(=O)[C@H](CCCNC(=N)N)NC(=O)[C@H](CCCNC(=N)N)NC(=O)[C@H](CCCCN)NC(=O)[C@H](CCCCN)NC(=O)[C@H](CCCNC(=N)N)NC(=O)CN)[C@@H](C)O)C(=O)N[C@H](C(=O)N[C@@H](CO)C(=O)N1CCC[C@H]1C(=O)O)[C@@H](C)O,,,"ICR mouse, female, right kidney","intranasal, 10 mg/kg daily, 4 weeks",,kidney weight,0.224 ± 0.023 g
CC(=O)NCCCC[C@@H]1NC(=O)[C@H](Cc2c[nH]c3c(C)cccc23)NC(=O)[C@H]([C@@H](C)O)NC(=O)[C@H](CC(N)=O)NC(=O)[C@@H](NC(C)=O)C(C)(C)SSC(C)(C)[C@@H](C(=O)N[C@@H](Cc2ccc(OCCN)cc2)C(=O)N[C@@H](Cc2ccc3ccccc3c2)C(=O)NC2(C(=O)N[C@@H](CCC(=O)O)C(=O)N[C@@H](CC(N)=O)C(=O)N[C@@H](Cc3cccnc3)C(=O)N(C)CC(N)=O)CCOCC2)NC1=O,,equilibrium dialysis,albumin plus glycoprotein,"0.01 µM, albumin 4%, glycoprotein 0.07%",,protein binding,26.8 ± 1.7%
Cc1ccc(N2CCN(C)C3(CC3)C2)cc1C(=O)N[C@H](C)c1cc(-c2cnn(C)c2)nc2ccccc12,Vero E6,,,15.62 µM,,viability,99% and 102% and 104%
C/C(=N\OCCCN1CCCCC1)c1ccc(C(F)(F)F)cc1,,,rhesus monkey,"dose not given, after dosing",,systolic blood pressure,169 mmHg and 162 mmHg
CC(C)C[C@H](NC(=O)[C@H](Cc1ccc(O)cc1)NC(=O)[C@H](Cc1c[nH]cn1)NC(=O)[C@@H](NC(=O)[C@H](CC(C)C)NC(=O)[C@H](C)NC(=O)[C@H](C)NC(=O)[C@H](CCCCN)NC(=O)CNC(=O)[C@@H](NC(=O)[C@H](Cc1c[nH]cn1)NC(=O)[C@H](CCCCN)NC(=O)CNC(=O)[C@@H](NC(=O)[C@H](Cc1c[nH]cn1)NC(=O)[C@H](C)NC(=O)[C@H](C)NC(=O)[C@H](CCCCN)NC(=O)[C@H](CCCCN)NC(=O)[C@H](Cc1ccccc1)NC(=O)[C@H](Cc1ccccc1)NC(=O)[C@H](CO)NC(=O)CNC(=O)[C@H](Cc1c[nH]c2ccccc12)NC(=O)CN)C(C)C)C(C)C)[C@@H](C)O)C(N)=O,,,"zebrafish embryos 28 hpf, E3 medium",1 h,,acute toxic concentration,5 µM
CCCCCCCCCCCCCCCC(=O)N[C@@H](CCC(=O)NCCOCCOCCC(=O)NCCOCCOCCC(=O)NCCCC[C@H](NC(=O)[C@H](CC(=O)O)NC(=O)[C@H](CC(C)C)NC(=O)[C@H](Cc1ccc(O)cc1)NC(=O)[C@H](CCCCN)NC(=O)[C@H](CO)NC(=O)[C@H](Cc1ccc(O)cc1)NC(=O)[C@H](CC(=O)O)NC(=O)[C@H](CO)NC(=O)[C@@H](NC(=O)[C@H](Cc1ccccc1)NC(=O)[C@@H](NC(=O)CNC(=O)[C@H](CCC(N)=O)NC(=O)[C@@H](CO)NC(=O)[C@@H](N)Cc1c[nH]cn1)[C@@H](C)O)[C@@H](C)O)C(=O)N[C@@H](CCCNC(=N)N)C(=O)N[C@@H](CCCNC(=N)N)C(=O)N[C@@H](C)C(=O)N[C@@H](CCC(N)=O)C(=O)N[C@@H](CC(=O)O)C(=O)N[C@@H](Cc1ccccc1)C(=O)N[C@H](C(=O)N[C@@H](CCC(N)=O)C(=O)N[C@@H](Cc1c[nH]c2ccccc12)C(=O)N[C@@H](CC(C)C)C(=O)N[C@@H](CC(C)C)C(=O)N[C@@H](CC(N)=O)C(=O)N[C@H](C(=O)NCC(=O)NCC(=O)N1CCC[C@H]1C(=O)N[C@@H](CO)C(=O)N[C@@H](CO)C(=O)NCC(=O)N[C@@H](C)C(=O)N1CCC[C@H]1C(=O)N1CCC[C@H]1C(=O)N1CCC[C@H]1C(=O)N[C@@H](CO)C(N)=O)[C@@H](C)O)C(C)C)C(=O)O,,,"rhesus monkey, male","subcutaneous, 300 µg/kg once daily, 28 days",,urea,5.2 ± 1.13 mmol/L
CN1Cc2cc(Cl)ccc2-n2c(nnc2C2CCN(c3cccc([18F])n3)CC2)C1,,PET two-tissue compartment model,"rhesus monkey, amygdala","intravenous, dose not given, 90 min scan, baseline scan",,total volume of distribution,1.21 ± 0.39 mL/cm3

# Some of these lines once more:
Compound,target or system,test,system,setting,how to read,quantity,result
Cc1ccc(N2CCN(C)C3(CC3)C2)cc1C(=O)N[C@H](C)c1cc(-c2cnn(C)c2)nc2ccccc12,Vero E6,,,15.62 µM,,viability,99% and 102% and 104%
